Published values of several laboratories.
A part holds a random share of what one study measured.

Study 1
Target: RNA binding protein fox-1 homolog 2, RRM domain, GST-SBP tag (RBFOX2, Homo sapiens, UniProt O43251-10, residues 100-194)
Method: RNA Bind-n-Seq
Form: RNA
Matrix: in vitro
Concentration: 365 nM
Notes: natural RNA segment, single round, ends assumed
Baseline: no-protein control
Direction: higher = stronger binding
Residues (chain): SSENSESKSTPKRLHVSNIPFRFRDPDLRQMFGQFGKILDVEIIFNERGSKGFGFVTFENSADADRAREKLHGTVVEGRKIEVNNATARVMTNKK
Oligonucleotide | RBNS enrichment (R)
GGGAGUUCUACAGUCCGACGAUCAGCAUGAAGUUUGAGUUUUGUGUUUUUCCAAAGGAUACUUCCUUGGCCCUUUUUCUUUAUUGACUAGACCACCAGAGGAGGAUGUGUGGGAUUGUAGGCAAACCCACCUGUGGAAUUCUCGGGUGCCAA | 0.971
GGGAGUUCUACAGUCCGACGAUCUGUAUUUGAAAAAUAAUCUUCCUGUGUACUUUCUCAAACCUGCGCUCAGUAAUAUACUUUAUUCUUUGAAGAUUUAAUUUAAAAACUUCAUAGAAAAUCCUUUUUUGCUUUGGAAUUCUCGGGUGCCAA | 1.41
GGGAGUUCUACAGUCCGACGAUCAUCCGUGGCCUUCACCUCUCCAGCUACCCUUUUACCUCAUCAGAAGCAGUGGCUCAGCUAAGUGCUCCCCCUAGCUCCCAUCUCAGGAGACCAAAUCUCACAGAAAAAUAUGGAAUUCUCGGGUGCCAA | 0.324
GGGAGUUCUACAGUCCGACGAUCUGGGAAGAAGUGGAGUUUUUUGGUUAUUAGGUUAAUUUUCUAGUAAAACACGUUGCCUGUUUUCAGUUAACACUGGUAAUGCCAUUUUAAUAUAUGGCUUUUUCAAAUCAUGGAAUUCUCGGGUGCCAA | 0.388
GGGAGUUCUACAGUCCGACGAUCUUGGGAACAUGUGGGGAAUUGUAUAUUGCGCUGAAUUAACUUCUCCCGCCUCUUGUAAUGCUCUGGUGGGUUCUUGUUUGGGAAUGCGAUAUUUUGUGGCUGGUUUAGCUUGGAAUUCUCGGGUGCCAA | 6.79
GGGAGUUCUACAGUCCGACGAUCGAAAACUAUUUAAUGAAAGCACGAUAUUUAUCUUUGGUAAAUGACUUUAGAGCAGUUAAAGACAUUGCUUAAAAAACUCAGAAUCAGAAAAAACACUGAAUUAUUUAAGAUGGAAUUCUCGGGUGCCAA | 5.27
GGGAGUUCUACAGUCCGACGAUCUUACUUUAUGGCAUGUGCUUUUCUCCACCGGAGGAGAGAGAGGCAAGUGUCUCCCUCAGCUUGUGUCCCUUUUUUCCUCCCCUUUCUGUCCUGGGCCUCUGUGUAGAGCAUGGAAUUCUCGGGUGCCAA | 2.36
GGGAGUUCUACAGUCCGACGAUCAGGCCCUGUGUGACAACAGUAAGAGCUGGGUUUUGUUAUUCUCUAGAAUGGCUCCAGCUGUGGGUGUGCACAAUGAGGGAGGAACUGCUUUCCCCCUUACUGUCAUUGGUUGGAAUUCUCGGGUGCCAA | 0.286
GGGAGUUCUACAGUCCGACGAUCUAUGUAAAACACAUGGCUUUUCCUGUGUAUAUUUUUAAAAAUUAAAGAAAUGCACAUUUAAAAAGUGUUUUGUGGAACCAGUCUGUAUAAAUGUGCCAGGUGACAAAGGUUGGAAUUCUCGGGUGCCAA | 0.524
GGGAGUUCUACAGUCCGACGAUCGACCACGCAAAGUGCUGGACACAUCAGUCAUCUCCAACUGGCUGAAAGGCUGAACCUCAGGGCUCCACCCACGUCAUGGCCACGCCCCCUCUAUUACAAGAGUCCGCCUUUGGAAUUCUCGGGUGCCAA | 0.287
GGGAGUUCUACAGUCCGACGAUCGAAAGAACAUGGCUACCGUGAGACAGCCCUGUGGGCCCUGCUACCCCUCCUAUUUCUGCCUCCCUGCUGGGAGCUUUCCUGUUCCCUGGUGUUCCACGAAGGAGGCUCUUUGGAAUUCUCGGGUGCCAA | 0.334
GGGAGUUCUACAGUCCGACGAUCGGCCCUAGCCUCUGGCAGAGCCUGUUCCUGGCCAAACUGUGGCUACAGCUGGAGGGUCAGGAACUGUUACCUUCCUUCCCCUUGGCAUUAAUAAAUUUAAGUUAAUCCUUUGGAAUUCUCGGGUGCCAA | 0.26

Study 2
Organism: Saccharomyces cerevisiae
Observed: cell growth
Method: competitive growth deep sequencing
Form: peptide
Notes: peptide tiling library
Together with: cyclin F-Cln2 fusion
Direction: direction not given
Sequence | enrichment score
ALTMEALEDPSPELME | 0.72
DSGFCLDSPGPLDSKE | 0.77
DSDSDSEGGAAGGEAD | 2.7
NRLLKLFTRCLTPLVP | 0.631
TQERKQIHCLSEDELS | 0.488
NCKKRRALDFLSRLPL | -0.0336
FREFEVEKQTAEETGL | 0.101
LFVPQRKLEVSTEDVH | 0.398
IPDRSTKPVVFSPT | 0.988
RNRGPKLNAMLRLGVL | -0.258
ELGMEHCEKFEISETS | 0.549
HRRRLLFACSPPPASQ | 2.57
VEEEFFALRKRTPSAG | 0.509
EAAPPTQEAQGETEPT | 0.669
VKTKKRLNFDDK | 2.06
AIRKMREDRWAVIAKM | -0.82
IPMIAKNLMCELDE | 1.11
IFNKPECGRVQRAIFQ | 0.256
RRRIKLPESDSSED | 2.28
NARRSLNFGGSTGT | 3.42
SGYLTDENEVGFRG | 0.0798
RRRRLLFWDKETQI | 0.973
VRDLSYRLVFLACCVA | 0.95
NLEPNAEFDKRTEFIT | 0.681
TLPYDLACTGGDFVLF | 0.862

Study 3
Target: Ras GTPase-activating protein-binding protein 1, RRM domain (G3BP1, Homo sapiens, UniProt Q13283)
UniProt Q13283, sequence (whole entry, looked up): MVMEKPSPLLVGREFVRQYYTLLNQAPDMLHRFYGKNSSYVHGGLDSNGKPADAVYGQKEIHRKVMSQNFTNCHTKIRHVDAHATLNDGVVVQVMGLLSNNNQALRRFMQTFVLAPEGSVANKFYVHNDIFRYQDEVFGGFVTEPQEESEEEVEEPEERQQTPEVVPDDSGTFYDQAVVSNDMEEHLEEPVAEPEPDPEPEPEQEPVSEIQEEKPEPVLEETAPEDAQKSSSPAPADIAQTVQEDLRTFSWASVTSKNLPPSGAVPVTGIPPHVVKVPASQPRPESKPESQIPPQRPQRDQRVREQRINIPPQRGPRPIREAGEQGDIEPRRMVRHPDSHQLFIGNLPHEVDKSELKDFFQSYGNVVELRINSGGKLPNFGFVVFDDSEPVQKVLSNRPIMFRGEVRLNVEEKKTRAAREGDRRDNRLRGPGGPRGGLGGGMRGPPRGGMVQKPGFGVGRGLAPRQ
Method: RNA Bind-n-Seq
Form: RNA
Matrix: in vitro
Concentration: 1 µM
Notes: whole 134-nt RNA, ends assumed
Together with: 150 mM KCl
Baseline: input library
Direction: higher = stronger binding
Oligonucleotide | log2 enrichment
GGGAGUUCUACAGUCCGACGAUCUCCUGUGCUACACAUCGUAUGUACCGAAUCGGGGUUUGGGGAAAAAGGGGUUUUUGGGGAAAGUAUUAUGUUACGCCGUUCGGAUCUGCAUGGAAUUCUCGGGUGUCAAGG | 1.41
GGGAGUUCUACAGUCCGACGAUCCCUGUGCUACACAUCGUAUGUACCGAAUCAAACCCCCCCAAACCCCCAAAUUUUUUUAAAAAAGUAUUAUGUUACGCCGUUCGGAUCUGCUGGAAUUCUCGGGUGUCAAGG | -0.434
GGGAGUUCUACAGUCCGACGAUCUCCUCAAGUCCUGUGCUACACAUCGUAUGUACCGAAUCGGGCGGGCGGGCGGAAAGUAUUAUGUUACGCCGUUCGGAUCUGCACUUCCAGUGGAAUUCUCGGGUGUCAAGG | 0.425
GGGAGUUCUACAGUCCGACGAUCUCCUGUGCUACACAUCGUAUGUACCGAAUCGGGUUUUUUUGGGAAAAAAAGGGUUUGGGAAAGUAUUAUGUUACGCCGUUCGGAUCUGCAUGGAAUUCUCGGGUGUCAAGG | -0.316
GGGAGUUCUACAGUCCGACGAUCACCAUGCAGGUGGGCAUCUUUGGGAAGUGGGGCAAGGGGGGGAUAGGGAGGGGAAAAACACUUUGGGAACAGGUGGUCCCAGGUCGUUUCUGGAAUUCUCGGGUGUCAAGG | -0.373
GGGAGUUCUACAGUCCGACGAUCAGUCCUGUGCUACACAUCGUAUGUACCGAAUCGGGGUGGGGAAAAAGGGGAAAGGGGAAAGUAUUAUGUUACGCCGUUCGGAUCUGCACUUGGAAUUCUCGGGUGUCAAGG | 1.22
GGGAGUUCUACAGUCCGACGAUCUGGGAGGUGGAUUUUGUUUAUUUUUUUAGCUCAUUUCCCGGGGUGGGAAUUUUUUUUUAAUAUGUGUCAUGAAUAAAGUUGUUUUUGAAAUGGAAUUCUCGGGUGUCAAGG | 1.59
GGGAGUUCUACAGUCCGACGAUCUCCUGUGCUACACAUCGUAUGUACCGAAUCAAAUUUAAAUUUUUUUAAAUUUUUUUAAAAAAGUAUUAUGUUACGCCGUUCGGAUCUGCAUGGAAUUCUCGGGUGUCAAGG | -0.173
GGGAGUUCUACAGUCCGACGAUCUGCCUGGCCCAGUGCUGGGUUUGCCUUGUUGACGAUGCGCUUGGAUUGUUAAGGACACCGAUGUUCAGAACCCGGGAAGAGUCAUCUUAAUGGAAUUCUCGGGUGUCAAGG | -0.334
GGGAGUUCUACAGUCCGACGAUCGCAGGAAGUAAAAACAAAUUGAAAUGCUUCGGAUAGUGGCAGGGGUGGGGGUUGCUAAGGAAAGGGUGGGAUGGGAGUGGGUAAAGAGUUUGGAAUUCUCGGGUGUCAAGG | 1.56

Study 4
Target: POU, POU domain (Salpingoeca helianthica)
Method: Spec-seq
Form: double-stranded DNA, one strand shown
Matrix: in vitro
Concentration: not given
Notes: whole probe, mean of replicates
Baseline: not given
Direction: lower = stronger binding
All sequences stand within: GAGTCGTCTCGTCAGCAC … CCGTAGAGCACTCAGGTC
Construct (chain): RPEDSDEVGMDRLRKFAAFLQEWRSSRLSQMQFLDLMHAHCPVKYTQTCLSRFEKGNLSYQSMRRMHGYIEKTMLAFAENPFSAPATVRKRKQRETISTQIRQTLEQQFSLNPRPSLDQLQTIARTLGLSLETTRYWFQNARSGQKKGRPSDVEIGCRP
Oligonucleotide | relative binding energy
ATGCACTA | 1.14 ln ratio
ATATGAAT | 1.07 ln ratio
ATAGACAT | 1.13 ln ratio
ATGCAGTG | 0.999 ln ratio
ATGCTGTC | 1.12 ln ratio
ATCAGAAT | 1.09 ln ratio
ATCTATAT | 1.01 ln ratio
ATGCACCA | 1.01 ln ratio
GTTCTAAT | 0.709 ln ratio
ATACACAT | 1.16 ln ratio
ATTTCAAT | 0.633 ln ratio

For quick reference, copied from above (study 2):
Sequence | enrichment score
NLEPNAEFDKRTEFIT | 0.681
VEEEFFALRKRTPSAG | 0.509
RRRRLLFWDKETQI | 0.973
AIRKMREDRWAVIAKM | -0.82
TQERKQIHCLSEDELS | 0.488
VKTKKRLNFDDK | 2.06
